Measured values pooled from the literature.
A part holds a random share of what one study measured. Values joined by “and” are separate records of one study, mostly repeats; a detail may differ.

Study 1 — read-out: enzyme activity; action: inhibitor; tested at: 10 µM
Target: Calcium/calmodulin-dependent protein kinase type II subunit alpha (CAMK2A, Homo sapiens, UniProt Q9UQM7)
Structure (SMILES)	inhibition [%]
C[C@H](O)[C@H]1CC[C@H]2[C@@H]3CC[C@@H]4C[C@H](O)CC[C@]4(C)[C@H]3CC[C@]12C	21
O=C(O)c1cc(O)c2c(c1)[C@H]([C@H]1c3cc(C(=O)O)cc(O)c3C(=O)c3c(O[C@@H]4O[C@H](CO)[C@@H](O)[C@H](O)[C@H]4O)cccc31)c1cccc(O[C@@H]3O[C@H](CO)[C@@H](O)[C@H](O)[C@H]3O)c1C2=O	5
C=C1CCCc2c(ccc3c2C(=O)C(=O)c2c(C)coc2-3)/C(C)=C/CCc2c1ccc1c2C(=O)C(=O)c2c(C)coc2-1	-16
Cc1c(=O)c(=O)c2c3c[nH]c4c(C)c(=O)c(=O)c(c5c[nH]c1c52)c43	-17
COC(=O)C1=CO[C@@H](O[C@@H]2O[C@H](CO)[C@@H](O)[C@H](O)[C@H]2O)[C@@H]2C(CO)=CC[C@H]12	-11
Cc1oc(=O)oc1COC(=O)N1CC[C@@H](N2CC/C(=C\C3=C(C(=O)O)N4C(=O)[C@@H](NC(=O)/C(=N\O)c5nsc(N)n5)[C@H]4SC3)C2=O)C1	2
CCC(=O)NC[C@@H]1C[C@H]1c1cccc2c1CCO2	-2
CCCCCCCCCC(=O)O	-10
C[N+]1(C)CCC[C@H]1C(=O)O	29
O=C(O)COCCN1CCN(C(c2ccccc2)c2ccc(Cl)cc2)CC1 (centres unmarked)	-1
O=C(O)/C=C/c1ccccc1O	-25
O=c1cc(-c2ccccc2)oc2cc(O[C@@H]3O[C@H](CO[C@@H]4O[C@H](CO)[C@@H](O)[C@H](O)[C@H]4O)[C@@H](O)[C@H](O)[C@H]3O)c(O)c(O)c12	-7
CCOC(=O)C(C)(C)Oc1ccc(Cl)cc1	-16

Study 2 — action: inhibitor; tested at: 10 µM; baseline: control
Target: Diamine acetyltransferase 1 (Homo sapiens, UniProt P21673)
Residues (P21673 1-171): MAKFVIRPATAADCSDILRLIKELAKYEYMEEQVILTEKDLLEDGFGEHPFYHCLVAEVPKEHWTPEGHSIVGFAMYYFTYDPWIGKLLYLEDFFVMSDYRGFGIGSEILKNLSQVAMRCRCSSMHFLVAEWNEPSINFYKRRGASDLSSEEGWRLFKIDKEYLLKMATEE
Structure (SMILES)	remaining activity [%]
C[N+](C)(C)CC(=O)O	98.1
COc1ccc(-c2cc(=O)c3c(O)c(OC)c(OC)c(OC)c3o2)cc1	104
COc1cc(O)ccc1CCC(=O)c1ccc(O)cc1	98.9
C[C@]12CC[C@@H]3c4ccc(O)cc4CC[C@H]3[C@@H]1CCC2=O	107
C[C@H](C[C@H](O)[C@H]1OC1(C)C)C1=C2C[C@H](O)[C@H]3[C@@]4(C)CCC(=O)C(C)(C)[C@@H]4CC[C@]3(C)[C@@]2(C)CC1	87
O=C(/C=C/c1ccc(O)cc1)NCCc1ccc(O)cc1	82
COc1ccc(-c2cc(=O)c3c(O)c(OC)c(O)cc3o2)cc1OC	99.1
C[C@@H]1O[C@@H](O[C@H]2[C@H](OC(=O)[C@]34CCC(C)(C)C[C@H]3C3=CC[C@@H]5[C@@]6(C)C[C@H](O)[C@H](O[C@@H]7O[C@H](CO)[C@@H](O)[C@H](O)[C@H]7O)C(CO)(CO)[C@@H]6CC[C@@]5(C)[C@]3(C)C[C@H]4O)OC[C@H](O)[C@@H]2O)[C@H](O)[C@H](O)[C@H]1O[C@@H]1OC[C@@H](O)[C@H](O[C@@H]2OC[C@](O)(CO)[C@H]2O)[C@H]1O	101

Study 3 — action: degrader; time: 24 h
Compound: C[C@@H]1CN(c2ccc(-c3cc(C(=O)NCCOCCOCCOCCOCCNC(=O)Cn4cc(-c5[nH]cc(C(=O)N[C@@H](CC(N)=O)c6ccc(F)c(Cl)c6)c5-c5ccc(Cl)cc5F)cn4)ccc3F)cc2NC(=O)c2c[nH]c(=O)cc2C(F)(F)F)C[C@H](C)N1C
WDR5/DCAF1: WDR5/DCAF1 (Homo sapiens, UniProt P61964+Q9Y4B6)
WDR5: WD repeat-containing protein 5 (WDR5, Homo sapiens, UniProt P61964)
target	test	setting	scale	remaining protein level
WDR5/DCAF1	HiBiT luminescence	1510 nM		60% and 60.5% and 55.9%
WDR5	Jess capillary immunoassay, refers to: WDR5 over vinculin	2 nM	baseline: DMSO	122% and 119% and 93.7%
WDR5/DCAF1	HiBiT luminescence	3800 nM		65.1% and 59.2% and 65.6%
WDR5	Jess capillary immunoassay, refers to: WDR5 over vinculin	60.3 nM	baseline: DMSO	91.8% and 106% and 119%
WDR5/DCAF1	HiBiT luminescence	10000 nM		74.2% and 88.3% and 76.8%
WDR5/DCAF1	HiBiT luminescence	2 nM		106% and 97.3% and 105%
WDR5/DCAF1	HiBiT luminescence	5.15 nM		106% and 97.5% and 108%

Study 4 — read-out: cell-free assay; method: competition with immobilised ligand; tested at: 1 µM
SMILES: CNC(=O)Nc1ccc2c(c1)[C@@]1(CC2)OC(=O)N(CC(=O)N(Cc2ccc(F)cc2)[C@@H](C)C(F)(F)F)C1=O
target	remaining binding
NUAK family SNF1-like kinase 2 (NUAK2, Homo sapiens, UniProt Q9H093)	77%
Hormonally up-regulated neu tumor-associated kinase (HUNK, Homo sapiens, UniProt P57058)	100%
Rhodopsin kinase GRK7 (GRK7, Homo sapiens, UniProt Q8WTQ7)	85%
G protein-coupled receptor kinase 3 (GRK3, Homo sapiens, UniProt P35626)	100%
Serine/threonine-protein kinase 26 (STK26, Homo sapiens, UniProt Q9P289)	100%
Mitogen-activated protein kinase kinase kinase 13 (MAP3K13, Homo sapiens, UniProt O43283)	100%
Interleukin-1 receptor-associated kinase 4 (IRAK4, Homo sapiens, UniProt Q9NWZ3)	94%
Serine/threonine-protein kinase PAK 6 (PAK6, Homo sapiens, UniProt Q9NQU5)	100%
Serine/threonine-protein kinase OSR1 (OXSR1, Homo sapiens, UniProt O95747)	65%
Testis-specific serine/threonine-protein kinase 1 (TSSK1B, Homo sapiens, UniProt Q9BXA7)	100%
Serine/threonine-protein kinase Nek9 (NEK9, Homo sapiens, UniProt Q8TD19)	95%
Serine/threonine-protein kinase TAO2 (TAOK2, Homo sapiens, UniProt Q9UL54)	95%
RAC-gamma serine/threonine-protein kinase (AKT3, Homo sapiens, UniProt Q9Y243)	94%
Phosphatidylinositol 4,5-bisphosphate 3-kinase catalytic subunit alpha isoform (PIK3CA, Homo sapiens, UniProt P42336, C420R)	80%
Activin receptor type-1 (ACVR1, Homo sapiens, UniProt Q04771)	89%
Serine/threonine-protein kinase pim-2 (PIM2, Homo sapiens, UniProt Q9P1W9)	89%
Fibroblast growth factor receptor 3 (FGFR3, Homo sapiens, UniProt P22607, G697C)	96%
Tyrosine-protein kinase JAK1, JH1 (JAK1, Homo sapiens, UniProt P23458)	93%
Phosphorylase b kinase gamma catalytic chain, skeletal muscle/heart isoform (PHKG1, Homo sapiens, UniProt Q16816)	100%
Mitogen-activated protein kinase kinase kinase 10 (MAP3K10, Homo sapiens, UniProt Q02779)	73%
Tyrosine-protein kinase receptor Tie-1 (TIE1, Homo sapiens, UniProt P35590)	100%
Tyrosine-protein kinase ABL1, phosphorylated (ABL1, Homo sapiens, UniProt P00519, F317I)	73%

A few entries again (study 1):
Structure (SMILES)	inhibition [%]
O=C(O)c1cc(O)c2c(c1)[C@H]([C@H]1c3cc(C(=O)O)cc(O)c3C(=O)c3c(O[C@@H]4O[C@H](CO)[C@@H](O)[C@H](O)[C@H]4O)cccc31)c1cccc(O[C@@H]3O[C@H](CO)[C@@H](O)[C@H](O)[C@H]3O)c1C2=O	5
C=C1CCCc2c(ccc3c2C(=O)C(=O)c2c(C)coc2-3)/C(C)=C/CCc2c1ccc1c2C(=O)C(=O)c2c(C)coc2-1	-16
Cc1c(=O)c(=O)c2c3c[nH]c4c(C)c(=O)c(=O)c(c5c[nH]c1c52)c43	-17
COC(=O)C1=CO[C@@H](O[C@@H]2O[C@H](CO)[C@@H](O)[C@H](O)[C@H]2O)[C@@H]2C(CO)=CC[C@H]12	-11
